# Measurements from different studies.
# Every numbered part comes from another study and shows a few of its results, in no order. Several values in a cell are separate wells, animals, samples, runs or records.
# UniProt P08908, sequence (whole entry, looked up): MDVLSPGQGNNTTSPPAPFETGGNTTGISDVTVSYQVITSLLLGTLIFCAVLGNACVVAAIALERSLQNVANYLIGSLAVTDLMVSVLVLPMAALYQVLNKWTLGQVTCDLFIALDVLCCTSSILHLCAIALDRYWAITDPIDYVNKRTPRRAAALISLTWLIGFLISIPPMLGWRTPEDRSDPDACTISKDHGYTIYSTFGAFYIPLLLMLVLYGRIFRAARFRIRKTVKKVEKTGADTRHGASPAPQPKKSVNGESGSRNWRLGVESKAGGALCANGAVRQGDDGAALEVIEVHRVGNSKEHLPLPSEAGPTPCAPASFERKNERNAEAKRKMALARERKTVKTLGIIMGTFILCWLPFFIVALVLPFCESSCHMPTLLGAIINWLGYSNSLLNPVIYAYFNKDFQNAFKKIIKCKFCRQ
# UniProt P41595, sequence (whole entry, looked up): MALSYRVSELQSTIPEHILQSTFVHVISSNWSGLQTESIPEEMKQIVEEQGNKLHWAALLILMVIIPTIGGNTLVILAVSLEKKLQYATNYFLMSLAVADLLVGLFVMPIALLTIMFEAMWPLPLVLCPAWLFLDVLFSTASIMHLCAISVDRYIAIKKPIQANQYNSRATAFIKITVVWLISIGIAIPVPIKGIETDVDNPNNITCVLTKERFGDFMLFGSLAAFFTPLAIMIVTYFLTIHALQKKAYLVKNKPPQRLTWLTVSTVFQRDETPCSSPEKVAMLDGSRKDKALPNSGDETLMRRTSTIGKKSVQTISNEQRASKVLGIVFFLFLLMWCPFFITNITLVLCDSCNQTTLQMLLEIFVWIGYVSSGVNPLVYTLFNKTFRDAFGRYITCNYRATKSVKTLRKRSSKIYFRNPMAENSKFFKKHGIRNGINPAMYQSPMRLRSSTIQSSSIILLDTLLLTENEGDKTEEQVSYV
# UniProt P28223, sequence (whole entry, looked up): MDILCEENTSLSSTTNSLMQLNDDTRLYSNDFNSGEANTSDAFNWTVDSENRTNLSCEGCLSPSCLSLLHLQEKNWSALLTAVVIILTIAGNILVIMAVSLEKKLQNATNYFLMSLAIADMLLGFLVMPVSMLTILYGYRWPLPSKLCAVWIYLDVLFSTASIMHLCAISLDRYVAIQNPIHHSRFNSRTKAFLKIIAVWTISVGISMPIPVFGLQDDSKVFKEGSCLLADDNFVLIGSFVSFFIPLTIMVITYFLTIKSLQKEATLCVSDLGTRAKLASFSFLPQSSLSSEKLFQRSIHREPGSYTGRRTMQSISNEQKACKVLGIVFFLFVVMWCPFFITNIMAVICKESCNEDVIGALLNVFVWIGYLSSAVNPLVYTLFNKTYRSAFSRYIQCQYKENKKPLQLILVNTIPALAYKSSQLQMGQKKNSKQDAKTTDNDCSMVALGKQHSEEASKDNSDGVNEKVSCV
# UniProt P28566, sequence (whole entry, looked up): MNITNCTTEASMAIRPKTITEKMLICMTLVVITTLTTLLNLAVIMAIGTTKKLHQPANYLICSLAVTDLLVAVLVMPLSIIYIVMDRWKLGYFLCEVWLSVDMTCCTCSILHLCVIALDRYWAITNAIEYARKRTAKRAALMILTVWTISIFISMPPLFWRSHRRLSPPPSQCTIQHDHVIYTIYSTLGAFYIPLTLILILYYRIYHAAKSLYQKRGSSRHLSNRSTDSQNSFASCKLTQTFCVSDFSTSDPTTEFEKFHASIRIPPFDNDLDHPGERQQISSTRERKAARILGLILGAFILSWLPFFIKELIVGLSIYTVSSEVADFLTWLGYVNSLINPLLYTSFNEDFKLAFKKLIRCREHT
# UniProt P46098, sequence (whole entry, looked up): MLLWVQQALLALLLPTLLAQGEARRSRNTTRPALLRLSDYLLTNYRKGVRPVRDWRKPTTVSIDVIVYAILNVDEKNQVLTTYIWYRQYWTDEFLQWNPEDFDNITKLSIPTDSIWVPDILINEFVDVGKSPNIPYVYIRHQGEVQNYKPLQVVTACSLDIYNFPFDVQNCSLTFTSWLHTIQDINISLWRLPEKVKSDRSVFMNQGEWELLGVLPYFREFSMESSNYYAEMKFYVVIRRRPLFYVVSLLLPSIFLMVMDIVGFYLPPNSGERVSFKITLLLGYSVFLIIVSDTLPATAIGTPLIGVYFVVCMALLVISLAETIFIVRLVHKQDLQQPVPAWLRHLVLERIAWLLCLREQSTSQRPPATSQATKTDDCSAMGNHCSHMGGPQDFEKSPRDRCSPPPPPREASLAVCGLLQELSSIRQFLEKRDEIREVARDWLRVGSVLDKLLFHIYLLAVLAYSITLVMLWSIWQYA
# UniProt P28335, sequence (whole entry, looked up): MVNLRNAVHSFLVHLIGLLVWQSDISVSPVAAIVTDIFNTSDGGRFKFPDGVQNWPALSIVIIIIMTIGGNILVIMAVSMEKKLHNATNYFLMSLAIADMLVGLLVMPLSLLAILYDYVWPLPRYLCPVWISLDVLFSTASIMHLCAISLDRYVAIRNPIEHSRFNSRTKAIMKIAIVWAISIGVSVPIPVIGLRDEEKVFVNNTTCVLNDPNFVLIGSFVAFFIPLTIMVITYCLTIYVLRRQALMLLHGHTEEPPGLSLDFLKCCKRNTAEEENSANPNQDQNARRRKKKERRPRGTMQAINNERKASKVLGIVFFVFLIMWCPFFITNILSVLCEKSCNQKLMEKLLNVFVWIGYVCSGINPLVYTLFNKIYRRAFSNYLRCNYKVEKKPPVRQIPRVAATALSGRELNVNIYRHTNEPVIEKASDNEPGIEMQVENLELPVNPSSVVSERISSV
# UniProt P28221, sequence (whole entry, looked up): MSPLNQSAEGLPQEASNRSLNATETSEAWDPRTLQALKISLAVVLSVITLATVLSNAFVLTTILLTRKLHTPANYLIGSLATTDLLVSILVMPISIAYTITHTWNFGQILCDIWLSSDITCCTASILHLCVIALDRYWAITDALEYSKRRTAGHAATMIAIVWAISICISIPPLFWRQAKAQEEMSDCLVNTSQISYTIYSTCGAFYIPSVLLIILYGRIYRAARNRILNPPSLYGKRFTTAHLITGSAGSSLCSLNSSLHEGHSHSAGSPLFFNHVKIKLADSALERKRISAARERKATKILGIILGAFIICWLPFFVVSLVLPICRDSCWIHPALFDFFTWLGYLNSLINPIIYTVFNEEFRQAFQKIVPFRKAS
# UniProt P47898, sequence (whole entry, looked up): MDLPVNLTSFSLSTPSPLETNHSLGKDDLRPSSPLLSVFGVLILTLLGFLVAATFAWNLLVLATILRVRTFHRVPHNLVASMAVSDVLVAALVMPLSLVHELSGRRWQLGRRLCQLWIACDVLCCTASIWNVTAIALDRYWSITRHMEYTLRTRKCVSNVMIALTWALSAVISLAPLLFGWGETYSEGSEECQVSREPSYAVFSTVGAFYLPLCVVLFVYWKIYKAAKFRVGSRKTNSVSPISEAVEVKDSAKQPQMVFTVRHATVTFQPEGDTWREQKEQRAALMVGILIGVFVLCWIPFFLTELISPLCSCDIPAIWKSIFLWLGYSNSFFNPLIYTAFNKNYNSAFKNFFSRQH

# Block 1 — effect on: binding; technique: radioligand binding; tested at: 10 µM
# SMILES: CNC(=O)c1cc(C(=O)NC2CC2)cn(Cc2ccccc2)c1=O
target,inhibition
"HTR1A (Homo sapiens, UniProt P08908)",6.03%
"HTR1E (Homo sapiens, UniProt P28566)",-11.9%
"HTR2B (Homo sapiens, UniProt P41595)",16.5%
"HTR1D (Homo sapiens, UniProt P28221)",-21.1%
"HTR5A (Homo sapiens, UniProt P47898)",-4.41%
"HTR3A (Homo sapiens, UniProt P46098)",14.3%
"HTR2A (Homo sapiens, UniProt P28223)",-8.9%
"HTR2C (Homo sapiens, UniProt P28335)",32.1%

# Block 2 — host: Sprague-Dawley rat, male; dose: dose not given
# Structure (SMILES): CC(C)(C)c1cnc(CSc2cnc(NC(=O)C3CCN(CCCCCSc4cccc5c4CN(C4CCC(=O)NC4=O)C5=O)CC3)s2)o1 (stereo not shown)
setting,body weight
"subcutaneous, day -1",214 g and 195 g and 211 g
"intraperitoneal, day 1",205 g and 230 g and 204 g
"subcutaneous, day 12",218 g and 280 g
"intraperitoneal, day 3",239 g and 216 g and 210 g
"subcutaneous, day 5",208 g and 187 g and 210 g
"intraperitoneal, day 14",276 g and 318 g and 279 g
"intraperitoneal, day 12",295 g and 258 g and 248 g

# Block 3 — action: agonist
# Target: Beta-1 adrenergic receptor (ADRB1, Homo sapiens, UniProt P08588)
# UniProt P08588, sequence (whole entry, looked up): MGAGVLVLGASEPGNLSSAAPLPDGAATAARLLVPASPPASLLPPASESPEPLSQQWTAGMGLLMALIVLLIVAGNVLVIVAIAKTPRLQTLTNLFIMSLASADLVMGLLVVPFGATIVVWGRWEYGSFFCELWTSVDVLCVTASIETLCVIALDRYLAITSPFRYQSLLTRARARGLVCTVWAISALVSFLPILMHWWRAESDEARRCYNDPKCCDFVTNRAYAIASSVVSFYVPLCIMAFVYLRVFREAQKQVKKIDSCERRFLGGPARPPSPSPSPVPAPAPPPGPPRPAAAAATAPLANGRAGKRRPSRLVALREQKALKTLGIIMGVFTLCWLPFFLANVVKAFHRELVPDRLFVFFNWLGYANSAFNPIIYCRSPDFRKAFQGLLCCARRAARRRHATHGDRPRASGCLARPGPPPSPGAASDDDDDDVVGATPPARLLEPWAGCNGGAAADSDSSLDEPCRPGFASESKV
Structure (SMILES),Emax [%]
C1=C(c2ccccc2)CCN(Cc2nc3ccccc3[nH]2)C1,41
C[C@H](Cc1ccc(OCC(=O)O)cc1)NC[C@H](O)c1cccc(Cl)c1,99.1
CCCN(CCC)C1CCc2c(ccc(O)c2O)C1 (stereo not shown),77
CC(CCc1ccccc1)NC(C)C(O)c1ccc(O)cc1 (stereo not shown),99.9
N[C@H](C(=O)O)[C@H](O)c1ccc(O)c(O)c1,102
Nc1ncnc2c1ncn2[C@@H]1O[C@@H]2COP(O)(=S)O[C@H]2[C@H]1O (stereo partly shown),103
CC(Cc1cccc(C(F)(F)F)c1)NCCOC(=O)c1ccccc1 (stereo not shown),97.2
Fc1ccc(N2CCNCC2)cc1,23.8

# Block 4 — effect on: enzyme activity; action: inhibitor; tested at: 10 µM
# Target: Calcium/calmodulin-dependent protein kinase type II subunit alpha (CAMK2A, Homo sapiens, UniProt Q9UQM7)
# UniProt Q9UQM7, sequence (whole entry, looked up): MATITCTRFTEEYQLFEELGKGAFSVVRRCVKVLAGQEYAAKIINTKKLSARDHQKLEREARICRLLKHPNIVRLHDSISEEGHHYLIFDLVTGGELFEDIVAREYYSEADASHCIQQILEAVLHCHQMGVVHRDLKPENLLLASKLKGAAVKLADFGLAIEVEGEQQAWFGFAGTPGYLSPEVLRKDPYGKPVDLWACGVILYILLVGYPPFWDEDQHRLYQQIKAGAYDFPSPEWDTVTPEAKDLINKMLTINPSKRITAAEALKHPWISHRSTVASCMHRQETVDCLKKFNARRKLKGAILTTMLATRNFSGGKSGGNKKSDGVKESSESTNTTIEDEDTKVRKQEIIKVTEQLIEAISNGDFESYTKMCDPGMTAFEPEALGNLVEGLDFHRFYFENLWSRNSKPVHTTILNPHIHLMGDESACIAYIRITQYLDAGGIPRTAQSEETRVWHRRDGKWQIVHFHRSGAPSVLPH
Structure (SMILES),inhibition [%]
N#CCc1c[nH]c2ccccc12,-25
CCCCCOc1ccc(-c2ccc(-c3ccc(C(=O)N[C@H]4C[C@@H](O)[C@@H](O)NC(=O)[C@@H]5[C@@H](O)[C@@H](C)CN5C(=O)[C@H]([C@@H](C)O)NC(=O)[C@H]([C@H](O)[C@@H](O)c5ccc(O)cc5)NC(=O)[C@@H]5C[C@@H](O)CN5C(=O)[C@H]([C@@H](C)O)NC4=O)cc3)cc2)cc1,-19
CCC(COC(=O)c1cc(OC)c(OC)c(OC)c1)(c1ccccc1)N(C)C (stereo not shown),-10
C=C1C(=O)O[C@@H]2O[C@@]3(C)CC[C@H]4[C@H](C)CC[C@@H]1[C@@]24OO3,13
COc1cc2c(cc1O)-c1cc3ccc(OC)c(OC)c3c[n+]1CC2,-1

# A few entries again (block 2):
setting,body weight
"intraperitoneal, day 3",239 g and 216 g and 210 g
"subcutaneous, day 5",208 g and 187 g and 210 g
